Results of several laboratories.
A part holds a random share of what one study measured. Values joined by “and” are separate records of one study, mostly repeats; a detail may differ.
Sequence of UniProt P27361 (whole entry, looked up): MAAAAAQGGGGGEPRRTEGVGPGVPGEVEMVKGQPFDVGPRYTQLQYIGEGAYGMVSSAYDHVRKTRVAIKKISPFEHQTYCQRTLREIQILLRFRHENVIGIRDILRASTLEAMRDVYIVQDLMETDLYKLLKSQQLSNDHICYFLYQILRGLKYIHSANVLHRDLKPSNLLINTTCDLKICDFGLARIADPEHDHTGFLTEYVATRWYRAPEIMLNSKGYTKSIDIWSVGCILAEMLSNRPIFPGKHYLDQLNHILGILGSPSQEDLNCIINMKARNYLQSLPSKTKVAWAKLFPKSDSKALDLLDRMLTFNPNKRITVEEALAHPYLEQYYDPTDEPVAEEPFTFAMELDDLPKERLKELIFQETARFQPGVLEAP
Sequence of UniProt P78368 (whole entry, looked up): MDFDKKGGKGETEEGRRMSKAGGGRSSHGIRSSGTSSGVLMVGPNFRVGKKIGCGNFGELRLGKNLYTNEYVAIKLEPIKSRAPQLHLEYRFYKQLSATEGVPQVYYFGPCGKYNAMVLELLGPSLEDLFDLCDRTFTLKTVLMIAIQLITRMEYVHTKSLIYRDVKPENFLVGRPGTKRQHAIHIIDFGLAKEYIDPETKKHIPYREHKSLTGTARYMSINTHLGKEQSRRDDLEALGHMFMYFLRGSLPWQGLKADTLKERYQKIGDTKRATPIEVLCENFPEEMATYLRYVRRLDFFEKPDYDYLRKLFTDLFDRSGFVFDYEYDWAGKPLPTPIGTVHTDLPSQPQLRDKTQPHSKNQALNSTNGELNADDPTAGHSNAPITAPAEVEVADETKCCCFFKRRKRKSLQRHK
Sequence of UniProt O75582 (whole entry, looked up): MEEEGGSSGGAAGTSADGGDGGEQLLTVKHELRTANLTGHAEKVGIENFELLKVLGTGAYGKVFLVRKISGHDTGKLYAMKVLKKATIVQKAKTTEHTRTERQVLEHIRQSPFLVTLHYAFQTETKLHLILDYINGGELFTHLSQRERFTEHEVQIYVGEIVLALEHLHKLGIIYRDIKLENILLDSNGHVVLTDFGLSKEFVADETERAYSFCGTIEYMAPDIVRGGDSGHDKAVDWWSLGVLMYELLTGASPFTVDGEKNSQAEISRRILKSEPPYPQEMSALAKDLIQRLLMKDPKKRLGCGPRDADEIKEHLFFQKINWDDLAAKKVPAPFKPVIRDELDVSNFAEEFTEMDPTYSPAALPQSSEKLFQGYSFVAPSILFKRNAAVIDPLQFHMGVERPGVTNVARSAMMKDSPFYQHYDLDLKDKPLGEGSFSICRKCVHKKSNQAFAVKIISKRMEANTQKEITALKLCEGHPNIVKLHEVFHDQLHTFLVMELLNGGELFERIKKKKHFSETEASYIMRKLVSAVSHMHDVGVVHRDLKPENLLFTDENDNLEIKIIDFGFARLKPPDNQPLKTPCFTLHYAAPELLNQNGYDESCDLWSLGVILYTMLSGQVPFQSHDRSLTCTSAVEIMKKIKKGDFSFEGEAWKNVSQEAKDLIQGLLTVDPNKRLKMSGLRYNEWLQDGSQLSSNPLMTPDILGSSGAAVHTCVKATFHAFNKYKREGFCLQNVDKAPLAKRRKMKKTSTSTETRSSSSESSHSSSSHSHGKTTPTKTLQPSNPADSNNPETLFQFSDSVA
Sequence of UniProt Q06418 (whole entry, looked up): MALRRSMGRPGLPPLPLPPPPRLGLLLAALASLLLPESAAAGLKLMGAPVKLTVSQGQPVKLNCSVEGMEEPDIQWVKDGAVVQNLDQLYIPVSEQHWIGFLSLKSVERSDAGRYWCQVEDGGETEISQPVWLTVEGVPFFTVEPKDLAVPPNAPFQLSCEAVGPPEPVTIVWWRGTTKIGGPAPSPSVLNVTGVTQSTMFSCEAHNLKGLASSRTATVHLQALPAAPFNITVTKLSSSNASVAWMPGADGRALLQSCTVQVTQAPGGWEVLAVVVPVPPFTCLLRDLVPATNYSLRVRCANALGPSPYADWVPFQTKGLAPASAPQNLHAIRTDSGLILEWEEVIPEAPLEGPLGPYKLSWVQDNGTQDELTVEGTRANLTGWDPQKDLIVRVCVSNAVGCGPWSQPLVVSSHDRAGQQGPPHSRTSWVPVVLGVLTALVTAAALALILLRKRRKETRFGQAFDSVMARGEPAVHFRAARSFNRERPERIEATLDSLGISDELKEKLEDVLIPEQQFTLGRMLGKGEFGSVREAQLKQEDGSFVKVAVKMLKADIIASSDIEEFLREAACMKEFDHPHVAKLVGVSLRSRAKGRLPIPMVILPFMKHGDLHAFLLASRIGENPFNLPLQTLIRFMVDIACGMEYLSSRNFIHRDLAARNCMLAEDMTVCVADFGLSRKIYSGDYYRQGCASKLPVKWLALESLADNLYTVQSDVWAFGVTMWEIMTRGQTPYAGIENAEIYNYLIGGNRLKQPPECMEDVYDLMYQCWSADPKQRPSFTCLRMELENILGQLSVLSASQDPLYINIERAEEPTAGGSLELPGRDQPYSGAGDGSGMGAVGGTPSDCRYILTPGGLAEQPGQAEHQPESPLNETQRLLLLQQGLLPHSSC
Sequence of UniProt P10398 (whole entry, looked up): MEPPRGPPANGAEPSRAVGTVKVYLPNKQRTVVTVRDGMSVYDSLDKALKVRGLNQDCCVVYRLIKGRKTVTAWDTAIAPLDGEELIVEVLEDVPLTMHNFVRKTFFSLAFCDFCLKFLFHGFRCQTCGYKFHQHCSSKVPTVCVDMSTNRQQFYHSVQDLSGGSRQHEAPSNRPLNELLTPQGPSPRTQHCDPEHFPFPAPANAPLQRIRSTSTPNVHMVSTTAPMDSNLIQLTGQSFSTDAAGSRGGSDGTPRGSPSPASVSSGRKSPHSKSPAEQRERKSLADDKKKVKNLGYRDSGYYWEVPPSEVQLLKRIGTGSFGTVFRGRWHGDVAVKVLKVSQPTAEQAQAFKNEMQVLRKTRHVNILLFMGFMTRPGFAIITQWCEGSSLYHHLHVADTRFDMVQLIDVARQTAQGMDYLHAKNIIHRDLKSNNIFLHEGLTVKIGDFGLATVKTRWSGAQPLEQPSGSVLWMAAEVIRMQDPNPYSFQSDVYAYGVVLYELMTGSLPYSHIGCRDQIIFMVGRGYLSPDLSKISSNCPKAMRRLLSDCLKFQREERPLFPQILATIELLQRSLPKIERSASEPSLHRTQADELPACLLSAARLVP
Sequence of UniProt Q96PY6 (whole entry, looked up): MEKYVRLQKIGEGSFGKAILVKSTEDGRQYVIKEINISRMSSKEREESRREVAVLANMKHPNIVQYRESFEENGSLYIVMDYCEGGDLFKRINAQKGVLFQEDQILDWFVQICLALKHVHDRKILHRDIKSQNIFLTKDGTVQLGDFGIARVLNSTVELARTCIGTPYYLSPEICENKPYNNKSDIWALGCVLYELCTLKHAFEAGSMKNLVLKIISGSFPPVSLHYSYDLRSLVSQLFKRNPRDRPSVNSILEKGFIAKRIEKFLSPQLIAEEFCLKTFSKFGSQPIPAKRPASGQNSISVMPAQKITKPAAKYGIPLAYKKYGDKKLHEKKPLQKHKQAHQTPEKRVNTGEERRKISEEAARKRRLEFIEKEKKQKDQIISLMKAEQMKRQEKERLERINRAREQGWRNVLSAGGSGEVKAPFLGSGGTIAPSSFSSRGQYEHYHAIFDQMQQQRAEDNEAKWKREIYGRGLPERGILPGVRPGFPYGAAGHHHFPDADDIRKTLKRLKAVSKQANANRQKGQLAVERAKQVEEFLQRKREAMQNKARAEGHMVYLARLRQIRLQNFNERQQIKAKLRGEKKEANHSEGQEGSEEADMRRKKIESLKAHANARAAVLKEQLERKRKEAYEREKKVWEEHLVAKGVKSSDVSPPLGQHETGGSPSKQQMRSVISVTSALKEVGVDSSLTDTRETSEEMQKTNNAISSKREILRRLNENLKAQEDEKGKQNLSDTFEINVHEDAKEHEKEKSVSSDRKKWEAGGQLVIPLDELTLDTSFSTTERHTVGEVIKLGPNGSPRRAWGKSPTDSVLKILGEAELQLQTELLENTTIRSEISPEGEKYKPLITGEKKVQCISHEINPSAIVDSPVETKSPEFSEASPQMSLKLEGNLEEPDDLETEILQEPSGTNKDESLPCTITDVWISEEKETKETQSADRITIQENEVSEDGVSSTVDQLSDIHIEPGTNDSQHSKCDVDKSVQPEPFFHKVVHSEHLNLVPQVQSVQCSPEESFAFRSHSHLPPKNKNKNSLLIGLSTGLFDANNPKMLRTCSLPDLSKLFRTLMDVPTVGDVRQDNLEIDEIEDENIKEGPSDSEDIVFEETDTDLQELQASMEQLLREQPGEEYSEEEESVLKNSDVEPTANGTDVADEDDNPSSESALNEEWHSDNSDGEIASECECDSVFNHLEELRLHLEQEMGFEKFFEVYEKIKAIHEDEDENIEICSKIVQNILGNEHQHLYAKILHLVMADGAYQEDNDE
Sequence of UniProt P36507 (whole entry, looked up): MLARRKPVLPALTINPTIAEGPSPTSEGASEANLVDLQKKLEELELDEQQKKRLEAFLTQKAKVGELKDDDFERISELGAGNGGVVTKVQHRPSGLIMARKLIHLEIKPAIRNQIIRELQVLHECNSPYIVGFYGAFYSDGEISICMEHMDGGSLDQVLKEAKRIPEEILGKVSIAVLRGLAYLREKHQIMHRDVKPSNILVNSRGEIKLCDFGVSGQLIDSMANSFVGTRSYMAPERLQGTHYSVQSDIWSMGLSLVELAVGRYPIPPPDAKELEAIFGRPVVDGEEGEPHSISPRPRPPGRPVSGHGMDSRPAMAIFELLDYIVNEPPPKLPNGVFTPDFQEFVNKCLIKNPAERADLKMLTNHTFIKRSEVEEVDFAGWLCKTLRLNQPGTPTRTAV

Set 1 — observed: binding; mode: competitor; method: NanoBRET; cells: HEK293; concentration: 33.3 µM
Target: GTPase KRas (KRAS, Homo sapiens, UniProt P01116, Q61R)
Structure (SMILES)	normalized BRET
CC(=O)N1CCN(c2nc(OC[C@@H]3CCCN3C)nc3c2CCN(c2cccc4cccc(Cl)c24)C3)C[C@@H]1CC#N	105% and 128% and 84.9%
CN1CCC[C@H]1COc1nc2c(c(N3CCN(S(C)(=O)=O)[C@@H](CC#N)C3)n1)CCN(c1cccc3cccc(Cl)c13)C2	64.8% and 94.6% and 62.4%
CC(C)C(=O)N1CCN(c2nc(OC[C@@H]3CCCN3C)nc3c2CCN(c2cccc4cccc(Cl)c24)C3)C[C@@H]1CC#N	142% and 118% and 134%

Set 2 — organism: Sarcocystis neurona; observed: parasite growth; concentration: concentration not given
SMILES	inhibition [%]
CC(Cc1ccccc1)(NC(=O)CN)c1ccccc1.Cl (centres unmarked)	-5.2
COc1nc(C)nc(Cl)c1NC1=NCCN1.Cl	-16.2
CCC(C)(C)N=C(NC#N)Nc1cccnc1	-12.4
Nc1nc(=O)[nH]cc1F	-10.4
O=C(O)c1cc2ccccc2c(Cc2c(O)c(C(=O)O)cc3ccccc23)c1O.OCCOCCN1CCN(C(c2ccccc2)c2ccc(Cl)cc2)CC1	-13.6

Set 3 — observed: cell-free assay; method: competition with immobilised ligand; concentration: 1 µM
SMILES: COc1ccc2c(O[C@@H]3C[C@H]4C(=O)N[C@]5(C(=O)O)CC5/C=C\CCCCC[C@H](NC(=O)OC5CCCC5)C(=O)N4C3)cc(-c3csc(NC(=O)C(C)C)n3)nc2c1C (some centres unmarked)
target	remaining binding [%]
ACVR2B (Homo sapiens, UniProt Q13705)	100
Ribosomal protein S6 kinase alpha-5, C-terminal kinase domain (RPS6KA5, Homo sapiens, UniProt O75582)	100
PTK2 (Homo sapiens, UniProt Q05397)	99
RET (Homo sapiens, UniProt P07949, V804M)	96
TYRO3 (Homo sapiens, UniProt Q06418)	100
ALK (Homo sapiens, UniProt Q9UM73)	74
MAPK3 (Homo sapiens, UniProt P27361)	94

Set 4 — observed: enzyme activity; mode: inhibitor; concentration: 0.5 µM; baseline: control
SMILES: N#Cc1cnc2cnc(NCc3cccnc3)cc2c1Nc1ccc(F)c(Cl)c1
target	remaining activity
GSK3B (Homo sapiens, UniProt P49841)	99.8%
MAP2K2 (Homo sapiens, UniProt P36507)	105%
MAP3K14 (Homo sapiens, UniProt Q99558)	118%
NEK1 (Homo sapiens, UniProt Q96PY6)	20.5%
ARAF (Homo sapiens, UniProt P10398)	106%
FGFR3 (Homo sapiens, UniProt P22607)	91.7%
ULK2 (Homo sapiens, UniProt Q8IYT8)	102%
LCK (Homo sapiens, UniProt P06239)	97.3%
CSNK1G2 (Homo sapiens, UniProt P78368)	102%
TEK (Homo sapiens, UniProt Q02763)	95.5%
NEK6 (Homo sapiens, UniProt Q9HC98)	104%
FRK (Homo sapiens, UniProt P42685)	101%
MAPK3 (Homo sapiens, UniProt P27361)	100%
JAK3 (Homo sapiens, UniProt P52333)	86.2%

A few entries again (set 3):
target	remaining binding [%]
Ribosomal protein S6 kinase alpha-5, C-terminal kinase domain (RPS6KA5, Homo sapiens, UniProt O75582)	100
RET (Homo sapiens, UniProt P07949, V804M)	96
